Assay results collected from several papers.
A part holds a random share of what one study measured. Positions count from the first letter of the parent shown.

Set 1
Target: CCND3, cyclin fold, Cln2 fusion (human)
Technique: yeast growth competition, sequencing
Sample: yeast
Setting: weak parent motif
Relative to: not given
Direction: higher = stronger binding
Starting sequence: viral docking peptide; YKVKRRLVFGADD; partner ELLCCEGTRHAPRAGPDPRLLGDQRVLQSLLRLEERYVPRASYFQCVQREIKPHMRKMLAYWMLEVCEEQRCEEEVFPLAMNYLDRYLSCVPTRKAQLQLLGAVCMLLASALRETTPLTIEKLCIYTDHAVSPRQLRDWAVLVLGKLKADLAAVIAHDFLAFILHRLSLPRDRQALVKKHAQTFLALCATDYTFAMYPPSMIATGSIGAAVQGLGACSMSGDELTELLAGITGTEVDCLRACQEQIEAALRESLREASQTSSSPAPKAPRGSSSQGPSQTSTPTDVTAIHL
Variant | normalised enrichment score
F9I | 0.508
G10K | 0.226
F9T | 0.325
R6K | 0.00892
A11H | 0.364
K4L | -0.163
D12E | -0.244
D12T | 0.388
K2L | 0.267
K2R | 0.0852
K2H | 0.533
L7F | 0.864
K4W | 0.0613
K4H | 0.273
R5H | 0.146

Set 2
Substance: HSPA5 (Homo sapiens, UniProt P11021)
Technique: cross-linking MS
Sample: cell fractions
partner | setting | cross-linked residues
PDIA6 (Homo sapiens, UniProt Q15084) | with: DHSO | E546 to E247
UBE2J2 (Homo sapiens, UniProt Q8N2K1) | with: DSSO | K579 to S2
CKAP4 (Homo sapiens, UniProt Q07065) | with: DSSO | K81 to K287
HYOU1 (Homo sapiens, UniProt Q9Y4L1) | with: DHSO | E329 to D752
HSP90B1 (Homo sapiens, UniProt P14625) | with: DHSO | D348 to E351
MRC1 (Homo sapiens, UniProt P22897) | with: DSSO | K326 to K1292

Set 3
Target: HLA class I histocompatibility antigen, A alpha chain, allele A*25:01 (Homo sapiens, UniProt P04439)
Observed: peptide-MHC binding
Form: peptide
Tested at: concentration not given
Molecule | binding
GIALAVPCV | inactive
AKATGRYNL | inactive
VTENKKIQY | inactive
TGIVSSMHY | inactive

Set 4
Target: UBE2A UBC core domain (UniProt P49459)
Chain of UniProt P49459 (whole entry, looked up): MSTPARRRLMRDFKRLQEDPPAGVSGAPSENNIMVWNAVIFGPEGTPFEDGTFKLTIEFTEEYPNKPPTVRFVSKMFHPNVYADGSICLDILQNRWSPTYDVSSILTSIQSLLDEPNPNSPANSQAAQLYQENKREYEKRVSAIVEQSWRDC
Technique: yeast two-hybrid
Sample: yeast
Setting: mostly zero background
Relative to: not given
Direction: higher = stronger interaction
B1: RNF182 RING domain (UniProt Q8N6D2); chain AESQASDELECKICYNRYNLKQRKPKVLECCHRVCAKCLYKIIDFGDSPQGVIVCPFCRFETCLPDDEV
B2: RNF6 RING domain (UniProt Q9Y252); chain NSIDSELGKICSVCISDYVTGNKLRQLPCMHEFHIHCIDRWLSENCTCPICRQPVLGSNIAN
B3: VPS8 RING domain (UniProt Q8N3P4); chain TRGLNPKQDYCSICLQQYKRRQEMADEIIVFSCGHLYHSFCLQNKECTVEFEGQTRWTCYKCSSSNKVGKLSE
B4: MARCHF1 RING domain (UniProt Q8TCQ1); chain TAPRSQSRLSVCPSTQDICRICHCEGDEESPLITPCRCTGTLRFVHQSCLHQWIKSSDTRCCELCKYDFIMETKLKPLRKWE
B5: NFX1 RING domain (UniProt Q12986); chain IEQLTTEKYECMVCCELVRVTAPVWSCQSCYHVFHLNCIKKWARSPASQADGQSGWRCPACQNVSAHVPNTY
Molecule | lacZ reporter activity
B1 (RNF182 RING domain) | 0
B2 (RNF6 RING domain) | 0
B3 (VPS8 RING domain) | 0
B4 (MARCHF1 RING domain) | 0
B5 (NFX1 RING domain) | 0

Single results of other studies
Substance | partner | assay | test system | setting | quantity | value
PNN (Homo sapiens, UniProt Q9H307) | ACIN1 (Homo sapiens, UniProt Q9UKV3) | cross-linking MS | cells | with: BSPNO | cross-linked residues | K157 to K1073

For quick reference, copied from above (set 1):
Variant | normalised enrichment score
F9I | 0.508
K2R | 0.0852
K4W | 0.0613
R6K | 0.00892
